Results of several laboratories.
Lines come from different studies, so protocols differ. pEC50, pKd: −log10 of the molar value.

Structure (SMILES)	tested on	assay	system	setting	scale	endpoint	result
CCCCN(C)CCNC(=O)c1cc(-c2ccc(Cl)s2)nc2ccccc12	SARS-CoV-2	cytopathic effect	USA_WA1/2020	retest, 8-point, duplicates		efficacy	54.6%
O=C(NCc1ccccc1CN1CCCC1=O)c1cnn2cccnc12	Lassa mammarenavirus	viral replication	Huh-7	10 µM, 72 h		remaining activity	66%
O=C(N[C@H]1CN2CCC1CC2)c1cc2cccc(Cl)c2s1	SARS-CoV-2	viral replication, GFP plate reader screen	BetaCov/Belgium/GHB-03021/2020	cell-based		pEC50	< 4.00
COc1nccnc1-c1c(C)cc(C)cc1C	Lassa mammarenavirus	viral replication	Huh-7	10 µM, 72 h		remaining activity	42%
Cn1cnc(Cn2c(=O)[nH]/c(=N\c3cc4cn(C)nc4cc3Cl)n(Cc3cc(F)c(F)cc3F)c2=O)n1			human, severe renal impairment	oral, 375 mg		dry mouth TEAE, Moderate severity	0%
Nc1ncnc2c([C@@H]3N[C@H](CO)[C@@H](O)[C@H]3O)c[nH]c12	Marburg virus	viral replication, antibody staining	HeLa, Musoke	25 µM, 1 h		infected cells	0.8%
CC[C@H](C)[C@H]1O[C@]2(CC[C@@H]1C)C[C@@H]1C[C@@H](C/C=C(\C)[C@@H](O[C@H]3C[C@H](OC)[C@@H](O[C@H]4C[C@H](OC)[C@@H](O)[C@H](C)O4)[C@H](C)O3)[C@@H](C)/C=C/C=C3\CO[C@@H]4[C@H](O)C(C)=C[C@@H](C(=O)O1)[C@]34O)O2	Spike glycoprotein (Severe acute respiratory syndrome coronavirus 2, UniProt P0DTC2)	binding				pKd	4.52
CNCc1cc(-c2ccc(C)c3ncccc23)ccc1OC	Lassa mammarenavirus	viral replication	Huh-7	10 µM, 72 h		remaining activity	33%
CC[C@H](C)[C@H](NC(=O)[C@H](CC(C)C)NC(=O)[C@H](Cc1c[nH]c2ccccc12)NC(=O)[C@H](CCC(N)=O)NC(=O)[C@@H](NC(=O)[C@H](Cc1ccccc1)NC(=O)[C@H](C)NC(=O)[C@H](CCCCNC(=O)COCCOCCNC(=O)COCCOCCNC(=O)CC[C@H](NC(=O)CCCCCCCCCCCCCCCCCCC(=O)O)C(=O)O)NC(=O)[C@H](CCC(N)=O)NC(=O)[C@H](C)NC(=O)[C@@H](NC(=O)[C@H](CCCCN)NC(=O)[C@H](CC(=O)O)NC(=O)[C@H](CC(C)C)NC(=O)C(C)(C)NC(=O)[C@@H](NC(=O)[C@H](CO)NC(=O)[C@H](Cc1ccc(O)cc1)NC(=O)[C@H](CC(=O)O)NC(=O)[C@H](CO)NC(=O)[C@@H](NC(=O)[C@H](Cc1ccccc1)NC(=O)[C@@H](NC(=O)CNC(=O)[C@H](CCC(=O)O)NC(=O)C(C)(C)NC(=O)[C@@H](N)Cc1ccc(O)cc1)[C@@H](C)O)[C@@H](C)O)[C@@H](C)CC)[C@@H](C)CC)C(C)C)C(=O)N[C@@H](C)C(=O)NCC(=O)NCC(=O)N1CCC[C@H]1C(=O)N[C@@H](CO)C(=O)N[C@@H](CO)C(=O)NCC(=O)N[C@@H](C)C(=O)N1CCC[C@H]1C(=O)N1CCC[C@H]1C(=O)N1CCC[C@H]1C(=O)N[C@@H](CO)C(N)=O			healthy subjects	1.5 mg, multiple ascending dose		severe hypoglycaemia	0%
Cc1cccc(N2CCN(C(=O)C3CCN(Cc4nc(-c5ccc(Cl)cc5)oc4C)CC3)CC2)c1C	SARS-CoV-2	cytopathic effect	USA_WA1/2020	round 1, 5-point		maximum response	108%
CNC(=O)[C@@H](NC(=O)[C@H](CC(C)C)[C@H](O)C(=O)NO)C(C)(C)C	Replicase polyprotein 1ab, main protease (rep, Severe acute respiratory syndrome coronavirus 2, UniProt P0DTD1)	reporter gene (mKate2), inhibitor		20 µM		inhibition	-0.586%
CCN1CCN(c2cc(C)c3cc(NC(=O)c4cccc(Cl)c4)ccc3n2)CC1	SARS-CoV-2	cytopathic effect, cell-based CPE	USA_WA1/2020	round 1, 5-point dilution		AC50	14.1 µM
CCc1c(C(=O)C(N)=O)c2c(OCC(=O)O)cccc2n1Cc1ccccc1	Daboia russelii		C2C12	100 µM, added: Daboia russelii venom GA	reference: venom alone	viability difference	-36%

For quick reference, copied from above:
Structure (SMILES)	tested on	assay	system	setting	scale	endpoint	result
CCCCN(C)CCNC(=O)c1cc(-c2ccc(Cl)s2)nc2ccccc12	SARS-CoV-2	cytopathic effect	USA_WA1/2020	retest, 8-point, duplicates		efficacy	54.6%
O=C(NCc1ccccc1CN1CCCC1=O)c1cnn2cccnc12	Lassa mammarenavirus	viral replication	Huh-7	10 µM, 72 h		remaining activity	66%
